Measured values from different studies.
Every numbered part comes from another study and shows a few of its results, in no order. Changes are numbered by the printed parent chain.

Block 1
Target: UBE2G2 UBC core domain (UniProt P60604)
Technique: yeast two-hybrid
Sample: yeast
Notes: mostly zero background
Reference: not given
Direction: higher = stronger interaction
B1: ARIH2 RING domain (UniProt O95376); chain HVPTSHPPHHCAVCMQFVRKENLLSLACQHQFCRSCWEQHCSVLVKDGVGVGVSCMAQDCPLRTPEDFVF
B2: RING1 RING domain (UniProt Q06587); chain SPRSLHSELMCPICLDMLKNTMTTKECLHRFCSDCIVTALRSGNKECPTCRKKLVSKRSLR
B3: RNF182 RING domain (UniProt Q8N6D2); chain AESQASDELECKICYNRYNLKQRKPKVLECCHRVCAKCLYKIIDFGDSPQGVIVCPFCRFETCLPDDEV
B4: MID2 RING domain (UniProt Q9UJV3); chain KMETLESELTCPICLELFEDPLLLPCAHSLCFSCAHRILVSSCSSGESIEPITAFQCPTCRYVISLNHRGL
B5: RNF6 RING domain (UniProt Q9Y252); chain NSIDSELGKICSVCISDYVTGNKLRQLPCMHEFHIHCIDRWLSENCTCPICRQPVLGSNIAN
B6: NFX1 RING domain (UniProt Q12986); chain IEQLTTEKYECMVCCELVRVTAPVWSCQSCYHVFHLNCIKKWARSPASQADGQSGWRCPACQNVSAHVPNTY
B7: RUFY1 RING domain (UniProt Q96T51); chain QALKGHAWLKDDEATHCRQCEKEFSISRRKHHCRNCGHIFCNTCSSNELALPSYPKPVRVCDSCHTLLLQRCSSTAS
B8: BFAR RING domain (UniProt Q9NZS9); chain GPQISVSEFSCHCCYDILVNPTTLNCGHSFCRHCLALWWASSKKTECPECREKWEGFPKVS
B9: VPS8 RING domain (UniProt Q8N3P4); chain TRGLNPKQDYCSICLQQYKRRQEMADEIIVFSCGHLYHSFCLQNKECTVEFEGQTRWTCYKCSSSNKVGKLSE
B10: ZMYND11 RING domain (UniProt Q15326); chain DEIDWETENHDWYCFECHLPGEVLICDLCFRVYHSKCLSDEFRLRDSSSPWQCPVCRSIKKKNTNKQEM
B11: CNOT4 RING domain (UniProt O95628); chain MSRSPDAKEDPVECPLCMEPLEIDDINFFPCTCGYQICRFCWHRIRTDENGLCPACRKPYPED
B12: HLTF RING domain (UniProt Q14527); chain LILSSGSDEECAICLDSLTVPVITHCAHVFCKPCICQVIQNEQPHAKCPLCRNDIHEDNLLE
B13: TRIM41 RING domain (UniProt Q8WV44); chain PVQTLQEEAVCAICLDYFTDPVSIGCGHNFCRVCVTQLWGGEDEEDRDELDREEEEEDGEEE
Target sequence (chain): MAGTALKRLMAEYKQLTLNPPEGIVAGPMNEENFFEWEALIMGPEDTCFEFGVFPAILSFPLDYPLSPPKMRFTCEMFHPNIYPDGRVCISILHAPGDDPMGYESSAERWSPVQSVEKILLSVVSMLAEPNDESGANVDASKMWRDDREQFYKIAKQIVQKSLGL
Sequence | lacZ reporter activity
B1 (ARIH2 RING domain) | 0
B2 (RING1 RING domain) | 0
B3 (RNF182 RING domain) | 0
B4 (MID2 RING domain) | 0
B5 (RNF6 RING domain) | 0
B6 (NFX1 RING domain) | 0
ASPKIFQKTKCSICNSALELPSVHFLCGHSFHQHCFESYSESDADCPTCLPENRKVMDMI (VPS11 RING domain (UniProt Q9H270)) | 0
EIKEYKARLTCPCCNTRKKDAVLTKCFHVFCFECVRGRYEARQRKCPKCNAAFGAHDFHR (RNF40 RING domain (UniProt O75150)) | 0
B7 (RUFY1 RING domain) | 16100
B8 (BFAR RING domain) | 0
B9 (VPS8 RING domain) | 0
LVKDFNPYITCYICKGYLIKPTTVTECLHTFCKTCIVQHFEDSNDCPRCGNQVHETNPLE (PCGF5 RING domain (UniProt Q86SE9)) | 0
B10 (ZMYND11 RING domain) | 0
B11 (CNOT4 RING domain) | 0
B12 (HLTF RING domain) | 0
B13 (TRIM41 RING domain) | 0

Block 2
Target: Histone acetyltransferase KAT6A, winged helix 2, GST fusion (KAT6A, Homo sapiens, UniProt Q92794, residues 85-181)
Technique: protein binding microarray
Form: double-stranded DNA, one strand shown
Sample: in vitro
Concentration: not given
Notes: 8-mer, flanks averaged, mean of 2 arrays, mostly near background
Reference: not given
Direction: higher = stronger binding
Construct (chain): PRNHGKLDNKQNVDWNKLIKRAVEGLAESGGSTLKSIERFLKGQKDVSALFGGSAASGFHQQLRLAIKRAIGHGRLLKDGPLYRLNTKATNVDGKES
Strand | E-score
CGGATCCC | 0.0916
ATCCACAA | 0.0858
CTTCCTAA | -0.00821
TGAGCTAA | -0.0855
ATGGAAAA | 0.0735
CAACTGAG | 0.141
AATAGGTG | -0.173
GATCTCAC | -0.0126
TCTGGTAA | 0.0713
AAGAATTA | -0.0341
CCGACCAG | -0.0454
AGTATAAT | 0.0856
GGACTAAC | -0.0436
ACTCTTGG | -0.0408
ATTACCCC | -0.0644
CTTATTGC | -0.103
ACCTAAAT | -0.0825
CACAGCGG | 0.0194
ATTCGATC | 0.0765

Block 3
Target: ABI1, truncated, D143A, DHFR fusion (Arabidopsis thaliana)
Technique: DHFR PCA, deep sequencing
Sample: yeast
Notes: methotrexate growth selection, single substitutions
Together with: (+)-ABA 710 µM
Reference: wild-type fitted maximum
Direction: higher = stronger binding
Starting sequence: PYL1, truncated, DHFR fusion (Arabidopsis thaliana); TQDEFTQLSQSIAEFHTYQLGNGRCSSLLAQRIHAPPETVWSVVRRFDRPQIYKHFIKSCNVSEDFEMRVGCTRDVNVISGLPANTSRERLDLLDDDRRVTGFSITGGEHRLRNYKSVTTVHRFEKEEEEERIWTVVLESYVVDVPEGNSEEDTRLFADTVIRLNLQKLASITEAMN
Change | relative binding score [%]
I33A | 69.4
I133T | 107
E174I | 89.4
F124A | 107
E89A | -4.89
L169K | 1.87
G108A | 50.9
I33D | -20.5
I79N | 102
S117E | 15.6
E147I | 97.8
W134A | 114
L164D | 35.3
E152H | 98.9
R49W | 75.9
E127W | 96.5
T6E | 114
D3H | 106
R69Q | 116
D48F | 44.4
L20D | 105
I52S | 100
R69G | 103
D96N | 99.9

Block 4
Target: Sal-like protein 4, full length isoform B (SALL4, Homo sapiens, UniProt Q9UJQ4-2, residues 1-616)
Technique: universal PBM
Form: double-stranded DNA, one strand shown
Sample: in vitro
Concentration: not given
Notes: 8-mer, flanks averaged, mean of replicates
Direction: higher = stronger binding
Strand | E-score
ATACGGCC | -0.0241
CTACGAAC | -0.0355
AATGCACG | 0.023
GCCGGCGC | -0.314
AGCTCTGA | -0.226
ATTAGGCC | 0.00079
AGTGTTTC | -0.0269
AACGTGGC | -0.112
ATGGTGCG | -0.0595
AACGCCAC | -0.233
ACAGGCGT | -0.121
CTCAAATC | -0.0241
CGGGCCAA | -0.298
AGGAGAGC | -0.299
AGTGTTGC | -0.0203
AAGTCGTC | -0.161
AAGGATTC | -0.144
ATGGCATC | 0.0471
AGGAGGGC | -0.209
AACCCCGC | -0.19
GGTGTAAC | -0.0207
CTCGTCAA | -0.17
ACTATTGC | 0.229

Block 5
Target: Interferon regulatory factor 5, full length, phosphomimetic (IRF5, Homo sapiens, UniProt Q13568-2, residues 1-514, K96S/S451D/S453D/S456D/S462D)
Technique: protein-binding microarray
Form: double-stranded DNA, one strand shown
Sample: in vitro
Concentration: 250 nM
Notes: 60-bp whole probe
Together with: salmon DNA 0.4 mg/ml
Reference: random background probes
Direction: higher = stronger binding
Shared flanks, not repeated: GCCTAGCAC … GTCTTGATTCGCTTGACGCTGCTG
Strand | log fluorescence [z-score]
TTCTACTTCTCTTTTTGCTTGTGCTAG | 1.34
CCTGGTTTTACTTTCTATCTGTGCTAG | 4.43
CGGCTACCGCGGCTCCTACAGTGCTAG | -0.796
CTAAAACTCTTTATTTAAGCGTGCTAG | 0.482
TTAGAACTGAGTCTCGACTAGTGCTAG | 0.0628
TTAGATATCAGTCTCGATCAGTGCTAG | 1.7
TCATCCTTTGCTTTCTCACTGTGCTAG | 0.96
GCCGGTATCGGGTATCGGGACGTGCTA | 4
CACGATCTCAGACTGGAGACGTGCTAG | -0.528
GGCGATTTCGGGTATCGAGACGTGCTA | 5.01
TTGGCTTCCTCTTTCTCTGCGTGCTAG | 0.397
TTAGGTATCCGGTTTCGGTTAGTGCTA | 8.34
GACGGGCTGCTTATCCTGACGTGCTAG | -0.509
TCATGTTTGTCACTCTCACTGTGCTAG | 0.747
GACGGTTTCGGGTATCGCGACGTGCTA | 7.78
TTATATTTCGGGTTTCGATTAGTGCTA | 8.3

Block 6
Target: CCND3, cyclin fold, Cln2 fusion (human)
Technique: yeast growth competition, sequencing
Sample: yeast
Notes: weak parent motif
Reference: not given
Direction: higher = stronger binding
Starting sequence: WEE2 docking peptide (human); KELRQKLNFSYCE; partner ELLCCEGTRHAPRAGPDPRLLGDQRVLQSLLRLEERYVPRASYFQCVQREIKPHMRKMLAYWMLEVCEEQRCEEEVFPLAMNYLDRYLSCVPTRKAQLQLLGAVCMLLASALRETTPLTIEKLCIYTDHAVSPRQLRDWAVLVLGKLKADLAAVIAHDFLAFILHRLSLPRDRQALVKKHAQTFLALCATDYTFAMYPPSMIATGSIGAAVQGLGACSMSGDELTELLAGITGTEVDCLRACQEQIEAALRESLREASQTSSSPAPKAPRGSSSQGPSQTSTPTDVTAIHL
Change | normalised enrichment score
L7A | -0.0958
R4A | -0.299
C12A | -0.212
Y11A | -0.189
L3A | -0.0132
F9A | 0.432
S10A | 0.00712

Excerpt of the above (block 2):
Strand | E-score
GGACTAAC | -0.0436
ATCCACAA | 0.0858
ATTCGATC | 0.0765
CAACTGAG | 0.141
ATTACCCC | -0.0644
CTTCCTAA | -0.00821
TCTGGTAA | 0.0713
TGAGCTAA | -0.0855
ACTCTTGG | -0.0408
AGTATAAT | 0.0856
AAGAATTA | -0.0341
CGGATCCC | 0.0916
CTTATTGC | -0.103
ATGGAAAA | 0.0735
CACAGCGG | 0.0194
